# Measurements of several laboratories.
# A part holds a random share of what one study measured.

# Study 1
# Target: TAR DNA-binding protein 43, full length, His tag (TARDBP, Homo sapiens, UniProt Q13148, residues 1-414)
# Technique: RNA Bind-n-Seq
# Form: RNA
# Medium: in vitro
# Concentration: 20 nM
# Setting: 6-mer, flanks averaged, single round
# Added: 150 mM KCl
# Relative to: input library
# Direction: higher = stronger binding
Strand,6-mer enrichment (R)
UAGUAG,0.846
UAUAAG,0.738
CCAAGC,0.717
ACCGCC,0.667

# Study 2
# Target: Sal-like protein 4, full length isoform A (SALL4, Homo sapiens, UniProt Q9UJQ4, residues 1-1053)
# Chain of UniProt Q9UJQ4 (whole entry, looked up): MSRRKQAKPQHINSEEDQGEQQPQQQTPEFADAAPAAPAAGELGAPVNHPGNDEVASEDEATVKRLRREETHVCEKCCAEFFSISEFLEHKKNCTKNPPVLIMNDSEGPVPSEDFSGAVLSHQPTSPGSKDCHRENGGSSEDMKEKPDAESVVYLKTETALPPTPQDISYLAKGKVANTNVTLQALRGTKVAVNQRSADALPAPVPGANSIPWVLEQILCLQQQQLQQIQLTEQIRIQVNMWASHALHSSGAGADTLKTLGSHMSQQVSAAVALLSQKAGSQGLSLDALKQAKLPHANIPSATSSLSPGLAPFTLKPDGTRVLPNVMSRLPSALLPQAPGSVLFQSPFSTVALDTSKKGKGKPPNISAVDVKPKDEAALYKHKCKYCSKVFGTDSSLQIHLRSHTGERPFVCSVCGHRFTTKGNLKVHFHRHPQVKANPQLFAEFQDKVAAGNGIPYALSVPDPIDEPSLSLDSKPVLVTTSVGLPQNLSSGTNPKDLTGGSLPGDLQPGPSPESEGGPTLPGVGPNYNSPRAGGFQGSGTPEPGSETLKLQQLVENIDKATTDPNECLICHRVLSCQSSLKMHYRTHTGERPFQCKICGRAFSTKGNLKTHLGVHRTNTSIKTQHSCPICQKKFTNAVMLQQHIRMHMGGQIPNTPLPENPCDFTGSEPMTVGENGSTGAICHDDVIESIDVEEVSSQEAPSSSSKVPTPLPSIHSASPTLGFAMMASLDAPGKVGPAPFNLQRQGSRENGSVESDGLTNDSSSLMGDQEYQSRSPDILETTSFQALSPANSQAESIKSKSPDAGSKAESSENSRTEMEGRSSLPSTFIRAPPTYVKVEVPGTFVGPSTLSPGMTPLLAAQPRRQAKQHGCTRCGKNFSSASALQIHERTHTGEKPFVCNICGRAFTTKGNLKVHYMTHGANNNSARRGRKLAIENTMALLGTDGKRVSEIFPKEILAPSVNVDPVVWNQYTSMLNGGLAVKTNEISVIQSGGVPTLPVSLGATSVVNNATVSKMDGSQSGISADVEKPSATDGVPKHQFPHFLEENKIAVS
# Technique: universal PBM
# Form: double-stranded DNA, one strand shown
# Medium: in vitro
# Concentration: 600 nM
# Setting: 8-mer, flanks averaged, mean of replicates
# Direction: higher = stronger binding
Strand,E-score
CGTCATTC,0.103
ACATAACA,0.275
TATGCGAA,0.211
AGAATTTA,0.278
AGAGAGCC,-0.207
GAGCATCA,-0.00789
CCCTCAAG,-0.0656

# Study 3
# Target: Interferon regulatory factor 7, full length, phosphomimetic (IRF7, Homo sapiens, UniProt Q92985, residues 1-503, S471D/S472D/S475D/S476D/S477D/S483D/S484D/S487D)
# Technique: protein-binding microarray
# Form: double-stranded DNA, one strand shown
# Medium: in vitro
# Concentration: 2200 nM top
# Setting: 60-bp whole probe
# Added: salmon DNA 0.4 mg/ml
# Relative to: random background probes
# Direction: higher = stronger binding
# Constant ends, left off below: GCCTAGCAC … GTCTTGATTCGCTTGACGCTGCTG
# Residues (chain): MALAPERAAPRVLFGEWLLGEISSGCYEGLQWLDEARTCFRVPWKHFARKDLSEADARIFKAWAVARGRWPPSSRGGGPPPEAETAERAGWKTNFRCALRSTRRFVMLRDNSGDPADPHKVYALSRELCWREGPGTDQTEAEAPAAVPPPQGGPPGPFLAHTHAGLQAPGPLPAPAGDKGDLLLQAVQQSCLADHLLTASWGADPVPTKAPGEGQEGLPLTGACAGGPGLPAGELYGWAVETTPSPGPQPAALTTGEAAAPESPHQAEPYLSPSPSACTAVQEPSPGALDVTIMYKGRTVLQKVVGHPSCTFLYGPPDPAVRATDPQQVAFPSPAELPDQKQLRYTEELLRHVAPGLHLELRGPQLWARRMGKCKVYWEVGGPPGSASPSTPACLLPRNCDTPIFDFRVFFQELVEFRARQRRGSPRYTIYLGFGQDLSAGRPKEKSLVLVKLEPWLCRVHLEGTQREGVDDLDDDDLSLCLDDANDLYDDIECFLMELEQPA
Strand,fitted relative affinity [z-score]
GGCGGTCTCCTACTGCTGACGTGCTAG,-0.227
TTAGAACTGAGTTTTGATTAGTGCTAG,-0.0805
TCACTTAGGTTTTCTGGTACTGTGCTA,1.71
TCAGTTCTGGGAAATATTACTGTGCTA,0.333
TTACGTTTCGGGTTTCGGTTAGTGCTA,9.89
TTAGGTTTAGGACTGGGTTAGTGCTAG,-0.133
TAACATATTCTCTTCTTGCAGTGCTAG,1.31
TTAGGTCTCGGACTAGGTTAGTGCTAG,-0.261

# Mixed results
Molecule,target,assay,test system,conditions,scale,endpoint,value
"PhoQ, residues 284 288 289 292 302 303 SSLVEF","PhoP, residues 12 14 15 18 19 AGCRL (Escherichia coli, UniProt P23836)","Sort-seq, measured: YFP reporter",E. coli,"PhoQ-PhoP variant library, added: 10 µM Mg2+","relative to: high Mg2+ state, higher = stronger signaling",fold induction,11.7

# Repeated from above (study 2):
Strand,E-score
AGAATTTA,0.278
AGAGAGCC,-0.207
GAGCATCA,-0.00789
